Measurements gathered from unrelated publications.
“And” joins repeats or separate records; there may be more than shown. ± gives the spread as reported.

Cc1ccc([C@@H]2O[C@H](CO)[C@@H](O)[C@H](O)[C@H]2O)cc1Cc1ccc(-c2ccc(F)cc2)s1
urinary chloride excretion change (Japanese type 2 diabetes patients; 25 mg, day 6, 24 h urine collection; reference: baseline): -37.1 mEq

CNCc1ccc(-c2[nH]c3cc(F)cc4c3c2CCNC4=O)cc1
headache incidence (human patients; oral, 480 mg twice daily, all grades): 11.1%

COc1ccc2c(=O)n(C)c(-c3ccccc3)nc2c1
tissue concentration (Sprague-Dawley rat, male, stomach; oral, 30 mg/kg, 2 h): 125 ng/mL

C=CC(=O)NC1CCN(c2ncc3ncnc(Nc4ccc(Oc5ccc6c(c5)ncn6C)c(C)c4)c3n2)CC1
blood-to-plasma ratio (item: total radioactivity; healthy male human, whole blood and plasma; oral, 60 mg, 4 h, geometric mean): 0.757

COc1ccc2c3c([nH]c2c1)[C@H](CC(C)C)N1C(=O)[C@H](CC(=O)NC(C)C)NC(=O)[C@@H]1C3
liver protoporphyrin IX (Fech-mutant mouse, liver; oral, 100 mg/kg daily, 5 days): 83.8 ng/g and 110 ng/g and 111 ng/g

Cc1nc(-c2ccc(OCC(C)C)c(C#N)c2)sc1C(=O)O
dizziness incidence (healthy Chinese subjects; oral, 40 mg): 2.6%

C=CC(=O)Nc1cc(Nc2nccc(-c3cn(C)c4ccccc34)n2)c(OC)cc1N(C)CCN(C)C
recovery (storage stability; human plasma; 5 h, -80 °C, LLOQ level): 98.7%

COc1cc2nccc(Oc3ccc(NC(=O)c4cc5c(n(-c6ccccc6)c4=O)CCCC5=O)nc3)c2cc1OC
grade ≥3 Pneumonia patients (relapsed or refractory AML; oral, 6 mg once daily): 33.3%

Cc1cccc(CNC(=O)c2cn(CCNC(=O)c3ccccc3Sc3c([N+](=O)[O-])ncn3C)c3cc4c(cc3c2=O)OC(F)(F)O4)n1
AUC(0-t) (Sprague-Dawley rat, male, plasma; intravenous, 5 mg/kg of parent drug): 264 ± 44 ng·h/mL

CC(C)(C(=O)N1CCOc2c(C#N)cncc2C1)C(F)F
subjects with TEAE (item: nervous system disorders; healthy humans, both sexes; oral, 40 mg single dose): 16.7%

CCn1c(=O)c(-c2cc(NC(=O)Nc3ccccc3)c(F)cc2Br)cc2cnc(NC)cc21
participants with grade ≥ 3 TEAE (item: accidental overdose; human, severe hepatic impairment; oral, 50 mg single dose): 0%

CCO[C@H]1CCN(Cc2c(OC)cc(C)c3[nH]ccc23)[C@H](c2ccc(C(=O)O)cc2)C1
unbound half-life (human mild hepatic impairment, plasma; oral, 200 mg single dose, median): 13.9 h

Cc1cc(-c2nnc(N)nc2-c2ccc(F)cc2)cc(Cl)n1
incidence of AE, immune-mediated, treatment-related (item: myositis, grade ≥ 3; post-IO NSCLC patients; oral, 100 mg once daily): 0%

O=C(N[C@H](Cc1c[nH]c2ccccc12)C(=O)Nc1ccncc1)c1ccc(-c2cc(C(F)(F)F)ccc2F)cc1F
concentration (Swiss Webster mouse, female, lung; oral, 50 mg/kg, 2 h, 20% HPβCD vehicle): 13.8 µM

CC(C)C(=O)O[C@H]1[C@H](C)OC(=O)[C@@H]1Cc1ccccc1
DT50 whole system (Swiss Lake sand sediment, aerobic dark; 20 °C): 0.89 days

Cc1ccc2c(c1)C(=O)[C@]1(O)CCN(c3ccc4nc(C)ccc4c3)C1=N2
tissue/plasma ratio (mouse; subcutaneous, 10 mg/kg, 30 min; reference: brain over plasma): 1.5

CC(C)n1c(Nc2cccnc2)nc2cnc(Nc3ccc(N4CCN(C)CC4)cc3)nc21
subjects with adverse event (item: creatine phosphokinase increased; healthy male subjects; oral, 150 mg, study, with: rifampin): 14.3%

Cc1ccc2nc(-c3ccccc3)c(CNc3ccc(F)cc3)n2c1
CC50 (peritoneal macrophages, Swiss mice; 5 days, 5% fetal calf serum): > 63.1 µM

For quick reference, copied from above:
CCn1c(=O)c(-c2cc(NC(=O)Nc3ccccc3)c(F)cc2Br)cc2cnc(NC)cc21
participants with grade ≥ 3 TEAE (item: accidental overdose; human, severe hepatic impairment; oral, 50 mg single dose): 0%

CCO[C@H]1CCN(Cc2c(OC)cc(C)c3[nH]ccc23)[C@H](c2ccc(C(=O)O)cc2)C1
unbound half-life (human mild hepatic impairment, plasma; oral, 200 mg single dose, median): 13.9 h
